Published values of several laboratories.
Each numbered part is a random draw from the data of one study; scales do not carry over between parts. Substitutions count along the parent as printed.

Block 1
Target: Sal-like protein 4, full length isoform B (SALL4, Homo sapiens, UniProt Q9UJQ4-2, residues 1-616)
Technique: universal PBM
Form: double-stranded DNA, one strand shown
Medium: in vitro
Tested at: not given
Setting: 8-mer, flanks averaged, mean of replicates
Direction: higher = stronger binding
| Oligonucleotide | E-score |
| --- | --- |
| ACGCTATA | 0.151 |
| AGGATCGG | -0.233 |
| CAATTCAC | 0.19 |
| GGAGCGGA | -0.263 |
| AATTGCGG | 0.096 |
| GACCGGTA | -0.275 |
| GACGGTGA | -0.174 |
| ACATAGGC | 0.148 |
| ATGTCTTG | 0.124 |

Block 2
Target: RING finger protein unkempt homolog, zinc fingers 1-6, GST-SBP tag (UNK, Homo sapiens, UniProt Q9C0B0, residues 30-357)
Technique: RNA Bind-n-Seq
Form: RNA
Medium: in vitro
Tested at: not given
Setting: RNA with constant flanks, ends assumed
Reference: input RNA pool
Direction: higher = stronger binding
All sequences stand within: GGGAGUUCUACAGUCCGACGAUC … CAACAGAGGAUUGAGCAUCA
Construct (chain): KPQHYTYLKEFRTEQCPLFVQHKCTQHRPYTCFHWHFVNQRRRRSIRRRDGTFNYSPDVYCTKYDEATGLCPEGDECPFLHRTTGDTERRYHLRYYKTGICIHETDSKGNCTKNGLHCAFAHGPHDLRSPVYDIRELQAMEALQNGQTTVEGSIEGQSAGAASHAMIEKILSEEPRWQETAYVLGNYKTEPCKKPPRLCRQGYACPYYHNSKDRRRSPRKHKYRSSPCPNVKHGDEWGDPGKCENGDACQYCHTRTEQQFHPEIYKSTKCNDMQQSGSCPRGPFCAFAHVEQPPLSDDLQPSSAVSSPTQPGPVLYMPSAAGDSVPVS
| Oligonucleotide | bound/input enrichment [ratio] |
| --- | --- |
| GAGUUCCCAGAGAAUGUACUUUUGCUUUGUCAUACUUAUCCUUGUUAUAUUUAAACAAUCCCGUACCCAAAAAAUGUGGGCCGUACUUUCUAGUGAGUCUAAGGAAAAGUCAUCUUUGAU | 0.399 |
| GGACAUUCUUGAGGUUUAACCUUGAUCCCUUGUGCUUCGGGCCCCAGCCUGUUGCUUGUGUCCGCAGAGGUUUGGUCAGCUCUGUGCCACUGCUCCAGAGAAGUACUACUCACUGGCCUG | 0.13 |
| UGUUUAGAAGGAAUGAUUCUUGCAGCAAAAUCAGUUGAUGAAAGAAGAGAUUCUCAAAUGGCCGCCGACUCCUUCAAGUCUGGCUUUGAACCUCCAGGAGACUUUCCAUUUGAAGAUUAC | 0.19 |
| GACAUGGAAACAUAUGAGAGACUGAGAGAAAAACAUGGAGAAGAGUUUUUCCCAACAUCCAACCGUCUUCUUCAUGGAACACAUGUGCCUUCCACAGAGGAAAUUGACAGGAUGGUCAUA | 0.188 |
| CCGUCUCAGCUUACCCACUCUUGACUCCUUUGAGCCUUUCAGAGGGGCAGUUUCUGGCCGCCGCAGCUUUUAUACUUUCACGGAAUUCCUUCAGUCCAGAGAGUUCUGGCAGCAGGCCGU | 0.1 |
| CACAAUUGCUCUUACAAUUACAAAGCUGAUGCUGCUGAGAAAAUCAGAAAAGAAAAUCCAGCCGUUGUUGGUGAAAAGAUCCAGAAGAUUUGAACUCCUGCUGGAAUACAAAAUCCUUUG | 0.205 |
| AGGUCCAGACACGGGAACGGAGGCCUGGCUGCGUUGCCCUAUCUCCGUCUCCGCCACCCACUCCGCGUUUUAGGCAUCAAUUACCAGCAGUUUCUCCGCCACUAUCUGGAAAAUUACCCG | 0.349 |
| AUUUGUUUUGUGAAUGACCCACGGCCCCAGCACAAGUACAAUAAAUUGUACACAGCCGACUACUUGAGCAAUAUGGUUGGAGGGAGAAAAACGCUGUAUAACAACCAGCCCAUUGACUUC | 0.122 |
| AUUAUGUCUUAUAAUCCUGCAUCACUUCUAUCCUAUCCAGUCAUAUCUAAUGUAGAAAAUCCGUUUCCAGUGAAAGUAAUAUGUAGUGCUUUUAUGAUAUUUGUGUGCAAUAUCCCCUCU | 1.94 |

Block 3
Target: CCNB1, cyclin fold, Cln2 fusion (human)
Technique: yeast growth competition, sequencing
Medium: yeast
Setting: weak parent motif
Reference: not given
Direction: higher = stronger binding
Starting sequence: SCAPER docking peptide (human); SNARRSLNFGGST
| Change | normalised enrichment score |
| --- | --- |
| L7F | 0.105 |
| N8A | 0.0827 |
| R5W | 0.0779 |
| S12C | 0.131 |
| A3S | -0.429 |
| F9P | 0.624 |
| S1R | 0.0587 |
| T13K | 0.58 |
| F9Q | 0.37 |

Further values, each from its own experiment
| Substance | target | assay | test system | conditions | how to read | quantity | value |
| --- | --- | --- | --- | --- | --- | --- | --- |
| PhoQ, residues 284 288 289 292 302 303 ALASRC | PhoP, residues 12 14 15 18 19 NQFFI (Escherichia coli, UniProt P23836) | Sort-seq, item: YFP reporter | E. coli | PhoQ-PhoP variant library, with: 10 µM Mg2+ | reference: high Mg2+ state, higher = stronger signaling | fold induction | 4 |

A few entries again (block 3):
| Change | normalised enrichment score |
| --- | --- |
| R5W | 0.0779 |
| N8A | 0.0827 |
| A3S | -0.429 |
| L7F | 0.105 |
